Results pooled from the literature.
Each numbered part is a random draw from the data of one study; scales do not carry over between parts. Positions count from the first letter of the parent shown.

Study 1
Target: RING finger protein unkempt homolog, zinc fingers 1-6, GST-SBP tag (UNK, Homo sapiens, UniProt Q9C0B0, residues 30-357)
UniProt Q9C0B0, sequence (30-357, looked up): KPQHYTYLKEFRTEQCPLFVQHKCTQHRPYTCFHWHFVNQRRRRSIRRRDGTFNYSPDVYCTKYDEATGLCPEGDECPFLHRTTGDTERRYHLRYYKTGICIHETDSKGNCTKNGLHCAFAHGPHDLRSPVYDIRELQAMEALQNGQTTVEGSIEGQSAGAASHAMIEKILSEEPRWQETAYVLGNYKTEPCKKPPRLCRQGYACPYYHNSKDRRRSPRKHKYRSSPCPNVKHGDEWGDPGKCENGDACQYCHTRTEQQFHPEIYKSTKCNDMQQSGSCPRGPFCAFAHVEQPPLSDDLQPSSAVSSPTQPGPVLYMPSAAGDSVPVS
Method: RNA Bind-n-Seq
Molecule type: RNA
Matrix: in vitro
Concentration: not given
Notes: RNA with constant flanks, ends assumed
Relative to: input RNA pool
Direction: higher = stronger binding
Endpoint: bound/input enrichment
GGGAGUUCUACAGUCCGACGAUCACAGAAUGGAGCUAUGGACGUUAAUUUGACCGUCUACUCCAAUCCCCGCCAAGAGACUGGCACCGCUGGACAUCCAACAUACCAAUUUUCUGCUAAUACAGGUCCUGCACAUUACAUGACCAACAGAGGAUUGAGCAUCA: 0.124 ratio
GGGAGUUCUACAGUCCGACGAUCAUCUGUAAUUUCAGUCUCUUUUUUUCUGAAAUACAUUAUAUUGUAUGUUUGAGAUAAUUCCCGUACAAAGUAUAAUAAACUAGAUGUAUAAUAAACCCUUUAAAUCAUUGCUAAGUGUAUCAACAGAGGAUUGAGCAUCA: 5.16 ratio
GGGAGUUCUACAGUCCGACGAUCAACCGUUAACAUCACUGCUGUGGCCUCAUACUCUUUUUUCCAUUUUCUACAAGAAGCCUUUCCGUAUAUGAAAAUUAUUACUCUUUUUGGGGUUUAAAGAAAUGGUCUGCAUAACCUGAACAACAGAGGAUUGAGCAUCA: 0.316 ratio
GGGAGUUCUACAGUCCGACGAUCUUGUUACUGGUUUUCUUUUUUUUUAAUGCUUCUGUUUUUAUCUCGCAAGUUGAUAUUGUACUCCGAUCUUAGCCAAAAACUUUUAUCUCUGAGAAAAAGUUUAAUAAAAAUGUACUAAACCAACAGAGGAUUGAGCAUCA: 1.96 ratio
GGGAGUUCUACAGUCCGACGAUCGACUGUUCAAGCAAAAAAGGUAACUAACUGCUUCAUCUCCUUUUGCGCUUAUUUGGAAAUUUCCGUUAUAGUGUUUAACUGGCAUGGAUUAAUAGAGUUGGAGUUUUAUUUUUAAGAAAACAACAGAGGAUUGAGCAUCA: 5.58 ratio
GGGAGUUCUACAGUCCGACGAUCUCUGGUAUUACCCUCACCUGCAUUGGUUUUGUUUUUUGGGGUUUUUGUUGUUUGUUUGUUUUCCGAUUCACAGAACAUGAGAAUCCUUUUUGACAAGCCUUGGAUAGCUGGCUCUCUUCUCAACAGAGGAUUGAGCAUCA: 0.33 ratio
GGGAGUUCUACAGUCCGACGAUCUCGGUUUUACACUCGGGAAGCAUUAACAGUGAGACACUAUUGUUUUUCUACUUGUGUGUGCCGUACAGGAAUUAUUCAGAUGCCACGUUUGAAUAAUUCAGAGUGAUGUUAUCUGUGAUACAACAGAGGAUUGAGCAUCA: 0.116 ratio
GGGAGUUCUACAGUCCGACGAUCAAAGACAAGUGUGUCCUGUGUGGAGGACUAACCUUAGAGAGGAGGAGAUUCCACCUGGCCCCGCUUUAUGGCUGUCAAUUGUCUAUUUUGCCAUUUAUAAGCUGAAAGAAGGCACUAAAGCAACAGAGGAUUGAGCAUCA: 0.239 ratio
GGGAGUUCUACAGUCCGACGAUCUUUCUUUCUUUUUUUUUUUUUUUUGAGAAGUCACCUGUUUUCCUUUUACAGGUGACUGAUUACCGUAUUGGCUUUCAAGAUGUUCCUCAGGCUGGGCGUGGGGGCUCACGCCUUUAAUGCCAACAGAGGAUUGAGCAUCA: 0.721 ratio
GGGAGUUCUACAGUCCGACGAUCAAGUCAGCAGCUGAGGUGGAGGAAGCACCUUCCCCUGAAGACAAUGUCUAUUUCGGAACUACCCGUGACGAUUCGGAUAUUGUUACACUUGAACCACCUAAGCUGGAAGAAAUGGGGAACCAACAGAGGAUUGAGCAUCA: 0.13 ratio
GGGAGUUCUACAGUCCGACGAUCAAUACAUUUGUUCCAAUGGGGAGCUUGGAAGAUGGCGUUCCCAGAAAGUAUUUUAAUAUCAACCGACCACAGCCAAAGCCUUAAAUCAAACCCACACACAACUGAAAAUUGCCUCCUCCACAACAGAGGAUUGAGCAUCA: 0.407 ratio

Study 2
Target: CCND1, cyclin fold, Cln2 fusion (human)
Method: yeast growth competition, sequencing
Matrix: yeast
Notes: strong parent motif
Relative to: not given
Direction: higher = stronger binding
Endpoint: normalised enrichment score
Starting sequence: SCAPER docking peptide (human); SNARRSLNFGGST
G10C: 0.445
T13A: 0.769
N2W: 1.12
R4F: -0.078
R5I: 0.695
R4C: 2.4
S12F: 1.06
L7D: 0.559
G10W: 0.611
S6M: 2.32
S12R: -0.242
S6T: 0.865
F9Y: -0.279
T13Q: 1
S12D: 1.89
L7G: -0.149
A3P: 0.375
S6P: 1.11
R5V: 0.717
S12M: 0.404
R5T: 0.209
N2G: 1.51

Study 3
Target: RNA binding protein fox-1 homolog 2, RRM domain, GST-SBP tag (RBFOX2, Homo sapiens, UniProt O43251-10, residues 100-194)
Method: RNA Bind-n-Seq
Molecule type: RNA
Matrix: in vitro
Concentration: 365 nM
Notes: natural RNA segment, single round, ends assumed
Relative to: no-protein control
Direction: higher = stronger binding
Endpoint: RBNS enrichment (R)
Target sequence (chain): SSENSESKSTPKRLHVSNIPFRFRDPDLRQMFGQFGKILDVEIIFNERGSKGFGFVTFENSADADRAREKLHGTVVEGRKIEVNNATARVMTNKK
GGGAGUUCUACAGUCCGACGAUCCUUGCCUGUUACUUUAGAGAUCUAGCCACUAGGCAGUCGCUUCUAAGAAAAUUAUUGAUGAAGUGGCCUUGUAAGUACAUGGUCUCUGAAAAAAAUUCAAGUUUUGUUCUUGGAAUUCUCGGGUGCCAA: 0.325
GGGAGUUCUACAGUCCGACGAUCUUUUAAAAAUACCAACUUGUAUGCACUUUAGAAUGUAAAAUAACAGUGGAUACUUAAGACUCAAAGAGCCACCACUACUUUAUUUUUUAUACACUUGGUCUUUCCAUGUAUGGAAUUCUCGGGUGCCAA: 1.41
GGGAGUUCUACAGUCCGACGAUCUCCAGAUUAAUUUUCCGUGUUUGAAGUAUGUGCAUAUGUGCUUUACAGAAUAAAACAUCUGAAUUUAUUUGCUCCGCGUCUUCUUCCUCCAGCCGGAUGGGUGUUUUCUAUGGAAUUCUCGGGUGCCAA: 0.438
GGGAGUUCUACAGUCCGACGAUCCUGCAGAAUAGAGCAGAAUAGAGAAAGUAAGCCUGAAGCUGAGUGCCUCAGCCACAAACCUAAAGGAGCUGCCUGUGUCUGACAGCACAGCCAUUCCAUCUCUUCCGUCCUGGAAUUCUCGGGUGCCAA: 0.264
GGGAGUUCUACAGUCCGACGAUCCUACUAUUUAUGAGGCCUCUGUGAGGCCAGCUCACUCCCCCUGCCUCUCCCACCCUGGGGGCAGGGUUCUAAGUAUGGGGAGUUCUUAUGCUGGCUUUUAGUGGUGUGUGUGGAAUUCUCGGGUGCCAA: 0.406
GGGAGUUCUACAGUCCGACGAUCCGUGCUUCUUGGUGUCUGAGCAGACAGACCCUGCCAGAGUAAACUGGCUGAGGGGAGUGUCCAUCAUAUGAAAGGGAGACAGGAGAGGAAGCUCUCCGUUGUCUUUCAGUUGGAAUUCUCGGGUGCCAA: 0.311
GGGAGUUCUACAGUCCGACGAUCUCUCCAGUCAUUGUAAUGUCUACAAGGAAUGCACAAUGGAGUGCUCAGAUCACUAAAAGGAGCAUCAGUGGCCCAAUUCCUCUUACUUUGGGACACACUGUCCACACUCCUGGAAUUCUCGGGUGCCAA: 0.397
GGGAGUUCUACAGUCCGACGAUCGGCAUGUAUCCUGGCUGAAGCGCUGCAAUCUUACACUAGCCACAGGGUACUGUUUUGAGCCAAAGGCUGAUACUUAAUUGAAGAGGGAAAAUGCAGAUUUGGGGACAAAGUGGAAUUCUCGGGUGCCAA: 0.849
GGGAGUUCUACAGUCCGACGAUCACAAUAUAGCACUGACUGAGUUGUAAAGCCUCCUGCCUGGAGACUUCAGUUAUAGCUGUAAUAAUUAAUCUUAUUUAUAAAAGCCACUCCACUAACCUUUUCUCUCCAACUGGAAUUCUCGGGUGCCAA: 0.705
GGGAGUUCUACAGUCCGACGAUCCCUGUGAAACCUGUAUUAUACUGCUCUUCUGAAGUAAGACUUUUCUACACCGGUAGCCUUCGCUGUCUGUCAGUCAGGACCUCUGGUAUAGGUGAUGUAAAAUAACCGUAUGGAAUUCUCGGGUGCCAA: 0.347
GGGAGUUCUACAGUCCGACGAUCAAAAAAAAAAAAGGACUAUUACAGAUCCCAAUACUUGGAUUUGGUGACCUUGUCUUUCUUUCUUUUCUUGAGACAUGGUCCUACUACCAACCCUGGCUGGACUGGAGCUCUGGAAUUCUCGGGUGCCAA: 0.435
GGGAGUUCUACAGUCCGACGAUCGUCCAUAGGCCACCAAUUCUCCUUGCGCUGCUCAGGCCUUCUCUCACCAGAUGGGCUUCCAUUCACCUUCGGACCCAGGGCCUCCAAGCCACACAGCUAUUCUUUGGCCAUGGAAUUCUCGGGUGCCAA: 0.573

Study 4
Target: Interferon regulatory factor 5, full length, phosphomimetic (IRF5, Homo sapiens, UniProt Q13568-2, residues 1-514, S451D/S453D/S456D/S462D)
Method: protein-binding microarray
Molecule type: double-stranded DNA, one strand shown
Matrix: in vitro
Concentration: 940 nM top
Notes: 60-bp whole probe
Added: salmon DNA 0.4 mg/ml
Relative to: random background probes
Direction: higher = stronger binding
Endpoint: fitted relative affinity
Constant ends, left off below: GCCTAGCAC … GTCTTGATTCGCTTGACGCTGCTG
GACGAGATCGGGACTGGAGACGTGCTA: 0.212 z-score
TTAGGTTTCAGGACTGGGTTAGTGCTA: 3.11 z-score
TTAGGTATCCTACAGCTTTAGTGCTAG: 0.0249 z-score
TTAGGACTGGGTCTCGGTTAGTGCTAG: 1.21 z-score
TTAGGACTGGTCTTTCGGTTAGTGCTA: 1.02 z-score
GGGCATTTAGAAAATGGAAATGTGCTA: -0.33 z-score
GACGGACTGGGTATCAGGACGTGCTAG: -0.238 z-score
GAAGGACTGGGGTATCGGGACGTGCTA: 0.329 z-score
TTAGGTTTCCTACTCCTTTAGTGCTAG: 1.13 z-score
GACGGTTTCCTTATCCTCACGTGCTAG: 1.86 z-score
GACGGACTGGTTCTCGGGACGTGCTAG: -0.0154 z-score
TTAGATTTCAGTCTCGATTCGTGCTAG: 3.59 z-score
AGAATGATCTTCCTTCATGGCGTGCTA: 0.681 z-score
TCACATACTAGTTTCCAACTGTGCTAG: 0.602 z-score
TCAGGAGTCATTCTCAAACTGTGCTAG: -0.123 z-score
GACGGTATCGGACTGCGGACGTGCTAG: 2.84 z-score
CAAAACATCATTGTCATATAGTGCTAG: 0.0738 z-score
GACAGACTGGACTATCGGGACGTGCTA: -0.446 z-score
TTAGAACTGAGGTATCGATTAGTGCTA: 2.08 z-score
TCAGTTTCCATTTTCAGACTGTGCTAG: 2.76 z-score
ACTCATTTTCATTTTGTGTCGTGCTAG: 1.29 z-score
GACGATTTGAGTTTCGAGACGTGCTAG: 3.79 z-score

Study 5
Target: Histone acetyltransferase KAT6A, winged helix 2, GST fusion (KAT6A, Homo sapiens, UniProt Q92794, residues 85-181)
Method: protein binding microarray
Molecule type: double-stranded DNA, one strand shown
Matrix: in vitro
Concentration: not given
Notes: 8-mer, flanks averaged, mean of 2 arrays, mostly near background
Relative to: not given
Direction: higher = stronger binding
Endpoint: E-score
Target sequence (chain): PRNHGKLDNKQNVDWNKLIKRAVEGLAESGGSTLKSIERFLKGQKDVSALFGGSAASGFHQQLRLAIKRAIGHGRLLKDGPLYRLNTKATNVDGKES
AAGGGACC: 0.0975
CCCCGCGA: 0.163
CTCCAAAC: 0.0244
CCTCGCCC: 0.0914
ATCTTTGC: 0.116
CTATGGGA: -0.0881
AAGACAAC: 0.116
AAACCGGA: 0.0843
ATCTGTGC: -0.127
CAGCGATA: -0.0518
CTCGCGGC: 0.183
AGTAGCGC: -0.0598
ACCCTATA: -0.217
CTCTCACA: -0.0381
GCCCAAAC: 0.173
AAAGTTAA: 0.033
ATTGGCCA: -0.00681
ACTGCAAG: -0.0896
CACACCTG: -0.031
AGCGATAT: 0.0732
ATACTTAA: -0.021
CTGAAGTC: -0.166
CCAGCAAG: 0.0261
ATTGTTTA: 0.0354
AATCAAAT: -0.116
